Experimental data pooled from the literature.
Every numbered part comes from another study and shows a few of its results, in no order.

Study 1
Target: Interferon regulatory factor 3, full length, phosphomimetic (IRF3, Homo sapiens, UniProt Q14653, residues 1-427, S386D/S396D/S398D/S402D/T404D/S405D)
Sequence of UniProt Q14653 (whole entry, unmodified, looked up): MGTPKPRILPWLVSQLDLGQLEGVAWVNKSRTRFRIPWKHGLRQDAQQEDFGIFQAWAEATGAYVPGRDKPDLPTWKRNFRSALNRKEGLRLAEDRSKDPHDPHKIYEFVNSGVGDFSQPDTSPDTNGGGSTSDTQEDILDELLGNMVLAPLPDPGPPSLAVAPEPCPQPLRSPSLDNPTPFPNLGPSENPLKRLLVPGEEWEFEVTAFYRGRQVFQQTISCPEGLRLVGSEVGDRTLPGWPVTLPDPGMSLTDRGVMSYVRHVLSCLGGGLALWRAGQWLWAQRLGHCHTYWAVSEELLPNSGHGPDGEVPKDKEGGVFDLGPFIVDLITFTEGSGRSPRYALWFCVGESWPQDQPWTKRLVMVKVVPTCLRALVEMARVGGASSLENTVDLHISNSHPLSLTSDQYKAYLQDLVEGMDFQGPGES
Method: protein-binding microarray
Form: double-stranded DNA, one strand shown
Medium: in vitro
Tested at: 2540 nM top
Notes: 60-bp whole probe
With: salmon DNA 0.4 mg/ml
Reference: random background probes
Direction: higher = stronger binding
Constant ends, left off below: GCCTAGCAC … GTCTTGATTCGCTTGACGCTGCTG
| Strand | fitted relative affinity [z-score] |
| --- | --- |
| TTCGAACTGAGACTGGATTAGTGCTAG | -0.284 |
| GAGCTCCTCCTTCTCTAACCGTGCTAG | 1.23 |
| TCAAATTTTGTCATCTAACTGTGCTAG | 0.235 |
| GACGGTATCCTTTTCCTGCCGTGCTAG | 7.23 |
| TTAGGTATCCTACTGCTTTGGTGCTAG | 2.31 |
| CCTCCCTCTCCCGGAGTTCCGTGCTAG | 0.858 |
| TCATCTACAGGGTTTCACACTGTGCTA | 1.17 |
| TTAGATTCCAGTTTCGAATAGTGCTAG | 4.41 |
| TTACGTTTCGGGACTGGGTTAGTGCTA | 3.19 |
| TTAGGTTTCGGTATCGGTTTGTGCTAG | 8.94 |
| GGTGTTTTCTAAACCATTGTGTGCTAG | 1.08 |
| TACGATATCGGGTATCGAGACGTGCTA | 0.00471 |
| TTAGATCTCAGACTGGATTGGTGCTAG | -0.137 |

Study 2
Target: Phosphate system positive regulatory protein PHO4, full length, GST-tagged (PHO4, Saccharomyces cerevisiae, UniProt P07270, residues 1-312)
Method: competition protein-binding microarray
Form: double-stranded DNA, one strand shown
Medium: in vitro
Tested at: 2 µM
Notes: whole 60-bp probe, lowest competitor level
With: Cbf1 competitor, 0.05 µM
Direction: higher = stronger binding
Constant ends, left off below: … GTCTTGATTCGCTTGACGCTGCTG
Construct (chain): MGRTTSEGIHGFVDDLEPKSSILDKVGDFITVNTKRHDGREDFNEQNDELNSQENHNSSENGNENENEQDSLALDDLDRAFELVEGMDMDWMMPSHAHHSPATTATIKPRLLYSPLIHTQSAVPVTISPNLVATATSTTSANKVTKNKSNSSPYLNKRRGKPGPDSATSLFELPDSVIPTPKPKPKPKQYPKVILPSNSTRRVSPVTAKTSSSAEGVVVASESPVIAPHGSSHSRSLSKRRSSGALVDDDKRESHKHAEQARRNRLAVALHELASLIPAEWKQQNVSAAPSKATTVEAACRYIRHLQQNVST
| Strand | fluorescence intensity [a.u.] |
| --- | --- |
| ACAGTATATTCCAAACATGTGTTAATCAAGCGTTGA | 9190 |
| CTAACGAAGGTTTGATACGTGGGTGACAAGCCAAGT | 6220 |
| CGGGGTTAAGTTTGTGCCGTGGGTGGCTTGCAGCAG | 5610 |
| TTATACGTATTACATCATGTGCTCCAGCCTTGTCAG | 9120 |
| CTCTTATTAACCAATGTCGTGCGGATCAAAATGCTA | 8060 |
| CGTTAAGTAGCCCATCACGCAGCAAGACCGCGGCCC | 6040 |
| TGGAAAGCTTGATGACATGTGATAGCACACCATGCT | 9710 |
| CGATGAAATCTTCTTCACGTTCAACTTGTCTGATAC | 6590 |
| ATAGAAATGGGTAGCCTTGTGACGGTGGATAATTCT | 3860 |
| CTTCTGTAAATTTGGCCAGTGGGTGGACGCGCCCCG | 3620 |
| CATCTTCAATATCCAGACGTGCAAAATGTTTCAATA | 6790 |

Study 3
Target: RNA binding protein fox-1 homolog 2, RRM domain, GST-SBP tag (RBFOX2, Homo sapiens, UniProt O43251-10, residues 100-194)
Method: RNA Bind-n-Seq
Form: RNA
Medium: in vitro
Tested at: 365 nM
Notes: natural RNA segment, single round, ends assumed
Reference: no-protein control
Direction: higher = stronger binding
Constant ends, left off below: GGGAGUUCUACAGUCCGACGAUC … UGGAAUUCUCGGGUGCCAA
Target sequence (chain): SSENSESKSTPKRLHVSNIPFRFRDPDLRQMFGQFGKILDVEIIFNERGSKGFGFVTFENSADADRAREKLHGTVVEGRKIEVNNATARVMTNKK
| Strand | RBNS enrichment (R) |
| --- | --- |
| UUAUGAAACUUUAAAGUUCUUUAUAAAAUGCAGCAGUGGAAAACUGACUAACAAAUCGAAUGUAAAGUUGGGAAUGUUUGGUUCUGUGUAUGCAGACACAUGAGCUGUGG | 2.17 |
| AUUCAUUAAAUGGCCCUGGCAUACAGCCACACACAGCUGCAAAUCUCAGCCAAAGAGGGAAAGGAAAGGGUCGCUCUUGACUGCUGAGAGCAUAGCUAAUGUACCUGGAA | 0.504 |
| CCUUUGAGUCAGUGUGCAGACCCCCUUUCAGGCCAUGCCUCUGUGAACCCUGUAUUGCUGGGGCCGGAAGGAGCCCCUGAGCCUAGCCCCUUCCCGUCUGCCCUGUGUCC | 0.643 |
| GACUCCCAGGAGACAGUGUGGGAAACGCUCCUGCUUUAAUUCCCCGAGAAACGGCUCUUCCUGCCUGGAUGCAGGAGGGCAGGGGCCACCACAGAUUAAAGCUGUUACUG | 0.999 |
| GCAUUCUCUCCUUACCUGCAGACUAUGCACAGUUCCUGGAGCAGAGGGAGAGGUGGUGUGGCUUGCCCUGCUGAGCCUUCUCGGCAGGAAUAAUAGUAAUAAAUGCACUU | 0.541 |
| AAUCAUAUUGGGAAAGUGCUAGCUGUGCUCACCUUCAUGGGGCUGUUUCCAGCUCGUCCACAAGCUCAUCGAUUUUCUUUAGUAGAUUACCGGUGUAAAUACCCAGUGUG | 0.213 |
| ACAGUGUUGUUUGCCUUGCUCACUUGUAACCCCCUCCUCGGAUCUAGGAGAAUGGGAGGAGGGUCUCGUGGAAAUGUAGCUAUUGGAUCUUUCCUGCACUUAUGGAAAUG | 0.979 |
| UUUUUUUAAUGAACUGUCACUUUUAACCCCCUCCUCUGCUGGCCGGGGGAUGGAAAGGAAGAUAAAUGUUAUUUGUUCACUUUUGUAAGACUCUGUUCUGGGUGUGGGCC | 0.571 |
| UCUCCUUAGGGAUGUGUGUGUUCAGUGCAAAGUAAGAAAUAUGAAAAUAUCCCUGUUCUUAGUUACCUUGCCACUUUGGCUUCUCCUGUGGCCCUGCCUUUACCAUAUCA | 0.305 |
| AAACUCCCUUCCAGAAUUUGUAGCUGAGAUUUCUGAUCUUUAACCGUGUCUACACGAAGCACCCAGUUGACAUCCGACUUGUUUUUGAGACGGGGGUCUCACUUAGCUGU | 0.407 |
| AUUAUUUCCACGUAAGGGAAAUAAGGUAGUACUUUUCUUUUUAUAUUUCUAUGCUUAAAAUUCUCUUUCCUAGUCAAAAAUUGCCCAAAUCUGUGUUUGCUUUCUGCUUG | 3.06 |
| AUUUUUUGAGUUCAAAUGCUACUGUCCAAGCGAGAAGUCCCUCAUCCUGAAGUAGACUAAAGCCCGGCUGAAAAUUCCGAGGAAAACAAAACAAACGAAUGAAUGAACAG | 0.923 |

Other studies, line by line
| Molecule | target | assay | system | conditions | how to read | quantity | result |
| --- | --- | --- | --- | --- | --- | --- | --- |
| PhoQ, residues 284 288 289 292 302 303 SLANIV | PhoP, residues 12 14 15 18 19 TQCLL (Escherichia coli, UniProt P23836) | Sort-seq, item: YFP reporter | E. coli | PhoQ-PhoP variant library, with: 10 µM Mg2+ | reference: high Mg2+ state, higher = stronger signaling | fold induction | 9.55 |

A few entries again (study 2):
| Strand | fluorescence intensity [a.u.] |
| --- | --- |
| TTATACGTATTACATCATGTGCTCCAGCCTTGTCAG | 9120 |
| CTCTTATTAACCAATGTCGTGCGGATCAAAATGCTA | 8060 |
| CGTTAAGTAGCCCATCACGCAGCAAGACCGCGGCCC | 6040 |
| TGGAAAGCTTGATGACATGTGATAGCACACCATGCT | 9710 |
| CGATGAAATCTTCTTCACGTTCAACTTGTCTGATAC | 6590 |
